Results gathered from unrelated publications.
Each line is one published result; not all experiments were run side by side.
Organism: Trypanosoma brucei

Compound	test	test system	conditions	how to read	endpoint	value
CC(C)(C)OC(=O)/C=C/c1ccc(O)c(C(=O)C(CCC(=O)OC(C)(C)C)CCC(=O)OC(C)(C)C)c1	parasite growth	RHODESIENSE STIB900	70 h, trypomastigote	–	IC50	2.3 µM
Cc1ccc2c(c1Br)C(O)(CC(=O)c1ccc3c(c1)OCO3)C(=O)N2 (centres unmarked)	LC-MS/MS	wild type	100 µM, 3 h	reference: untreated	sugar nucleotide levels	no effect
C[C@H](Nc1c(-c2c(F)cc(OCCCN)cc2F)c(Cl)nc2ncnn12)C(F)(F)F	parasite growth, SYBR Green	–	72 h	–	EC50	0.127 µM
Fc1ccc2[nH]c(NCCCNCc3cc(Cl)cc(Cl)c3)nc2c1	–	bloodstream form	–	reference: compound over 2	EC50 ratio	2 fold
O=C(Nc1cc2nc(-c3ccc(F)c(F)c3)c(CO)n2cn1)N1CC[C@H](F)C1	parasite growth	Squib 427 suramin-sensitive	3 days	–	IC50	1.21 µM
O=C(Nc1ccc2c(c1)CN(c1ccc(F)c(F)c1)C2=O)N1CCN(c2ccc(Cl)cc2)CC1	parasite growth, resazurin	RHODESIENSE	–	–	IC50	1.8 µM
COc1cc(O)c(-c2ccc(OC)c3c(OC)cc(C)cc23)c2c1[C@H](C)N(C)[C@H](C)C2	parasite growth	RHODESIENSE STIB900	trypomastigote	–	IC50	15.1 µM
C[C@@H](Nc1c(-c2c(F)cc(C#N)cc2F)c(Cl)nc2ncnn12)C(C)(C)C	parasite growth, SYBR Green	–	72 h	–	EC50	0.205 µM
CC(C)(C)OC(=O)/C=C/c1ccc(O)c(O)c1	parasite growth	RHODESIENSE STIB900	70 h, trypomastigote	–	IC50	1.2 µM
O=C(Nc1ccc2c(c1)CN(c1ccc(F)c(F)c1)C2=O)N1CCN(c2ccc(F)cc2)CC1	parasite growth, resazurin	RHODESIENSE	–	–	IC50	2 µM
CC(C)OC(=O)/C=C/c1ccc(O)c(O)c1	parasite growth	RHODESIENSE STIB900	70 h, trypomastigote	–	IC50	1 µM
O=C(Nc1ccc2c(c1)CN(c1ccc(Cl)cc1)C2=O)N1CCN(c2ccc(F)cc2)CC1	parasite growth, resazurin	RHODESIENSE	–	–	IC50	0.8 µM
CC(=O)OC[C@H]1O[C@@H]([Se][Se][C@@H]2O[C@H](COC(C)=O)[C@H](OC(C)=O)[C@H](OC(C)=O)[C@H]2OC(C)=O)[C@H](OC(C)=O)[C@@H](OC(C)=O)[C@H]1OC(C)=O	parasite growth, flow cytometry	–	5 µM, 24 h	–	inhibition	37 to 97%
O=C(Nc1ccc2c(c1)CN(c1ccc(Cl)c(Cl)c1)C2=O)N1CCN(c2ccc(Cl)cc2)CC1	parasite growth, resazurin	RHODESIENSE	–	–	IC50	0.4 µM
O=C(Nc1cc2nc(-c3ccc(F)c(F)c3)c(CN3CCN(c4ccc(F)cc4)CC3)n2cn1)N1CC[C@H](F)C1	–	Squib 427, suramin-sensitive	72 h	–	IC50	0.95 µM
O=C(Nc1ccc2c(c1)CN(c1ccc(Cl)cc1)C2=O)N1CC[C@H](F)C1	parasite growth, resazurin	RHODESIENSE	–	–	IC50	> 64 µM
COc1cc2c(cc1-c1c(C)noc1C)ncc1[nH]c(=O)n([C@H](C)c3ccccn3)c12	flow cytometry	EP1/GFP reporter	5 µM, 3 d	–	reporter fluorescence	increased

For quick reference, copied from above:
Compound	test	test system	conditions	how to read	endpoint	value
CC(C)OC(=O)/C=C/c1ccc(O)c(O)c1	parasite growth	RHODESIENSE STIB900	70 h, trypomastigote	–	IC50	1 µM
O=C(Nc1cc2nc(-c3ccc(F)c(F)c3)c(CN3CCN(c4ccc(F)cc4)CC3)n2cn1)N1CC[C@H](F)C1	–	Squib 427, suramin-sensitive	72 h	–	IC50	0.95 µM
